Measured values collected from several papers.
Each line is one published result; not all experiments were run side by side. Numbers after ± are the reported error.
Target: Cytochrome P450 3A4 (CYP3A4, Homo sapiens, UniProt P08684)
Chain of UniProt P08684 (whole entry, looked up): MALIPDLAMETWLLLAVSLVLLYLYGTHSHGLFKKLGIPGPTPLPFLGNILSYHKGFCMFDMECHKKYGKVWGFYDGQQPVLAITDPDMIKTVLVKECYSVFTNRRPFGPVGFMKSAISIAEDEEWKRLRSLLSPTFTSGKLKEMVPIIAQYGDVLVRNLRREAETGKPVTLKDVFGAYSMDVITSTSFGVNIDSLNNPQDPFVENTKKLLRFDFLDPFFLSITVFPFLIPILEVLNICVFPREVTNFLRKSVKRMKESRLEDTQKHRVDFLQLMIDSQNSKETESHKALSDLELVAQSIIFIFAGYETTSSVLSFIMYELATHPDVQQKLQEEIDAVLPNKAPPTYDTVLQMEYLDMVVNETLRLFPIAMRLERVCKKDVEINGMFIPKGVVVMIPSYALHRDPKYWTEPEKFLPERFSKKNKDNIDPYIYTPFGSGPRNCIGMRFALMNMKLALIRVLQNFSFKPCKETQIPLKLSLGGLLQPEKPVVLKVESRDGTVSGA
Mode: inhibitor

C[C@]1(O)CCCN(c2nc(Nc3ccc(S(=O)(=O)N[C@H]4CC[C@H](CN5CCN(c6ccc(C7CCC(=O)NC7=O)cc6F)CC5)CC4)cc3)ncc2C(F)(F)F)C1 (some centres unmarked) has an IC50 of > 10 µM (time-dependent inhibition; 30 min preincubation, together with: NADPH).
The IC50 of NC(=O)c1c(F)ccc(OCc2nc3cc(Cl)cnc3s2)c1F is reported as > 33.7 µM (enzyme activity, fluorescence).
The IC50 of O=C(OCCCc1cc2c(cc1OCc1ccccc1)OCO2)c1ccccc1 is reported as 5.8 µM (enzyme activity, fluorescence; recombinant enzyme; together with: dibenzyl fluorescein substrate).
With CCc1nc(N)nc(N)c1C#CC(C)c1cc(-c2cc(C)nc(C)c2)ccc1OC (centres unmarked) the IC50 was 3.6 µM (enzyme activity, fluorescence; 30 min).
The IC50 of CC(C)=CCC/C(C)=C/COc1c2ccoc2cc2oc(=O)ccc12 is reported as 12.9 ± 1.17 µM (30 min).
For COc1ccc(-c2cccc(S(=O)(=O)N[C@@H](Cc3cccc(C(=N)N)c3)C(=O)N3CCN(C(=O)NC4CCCCC4)CC3)c2)c(OC)c1, the IC50 was 0.63 ± 0.04 µM (enzyme activity, fluorometric; human liver microsomes; 15 min, 37 °C).
The IC50 of CC1CCC2(OC1)OC1CC3C4CC=C5CC(OC6OC(CO)C(OC7OC(CO)C(O)C7O)C(O)C6OC6OC(C)C(O)C(O)C6O)CCC5(C)C4CCC3(C)C1(O)C2C (centres unmarked) is reported as 4.52 µM (enzyme activity; human, liver microsomes; 1 h, pH 7.4, testosterone probe).
With COc1ccc(-c2cccc(S(=O)(=O)N[C@@H](Cc3cccc(C(=N)N)c3)C(=O)N3CCC(NC(=O)NC4CCCCC4)CC3)c2)c(OC)c1 the IC50 was 0.21 ± 0.03 µM (enzyme activity, fluorometric; human liver microsomes; 15 min, 37 °C).
COC(=O)c1ccc2c(c1)NC(=O)/C2=C(\Nc1ccc2c(c1)CCN2C(=O)CN1CCOCC1)c1ccccc1 has an IC50 of 0.087 µM (recombinant enzyme; 10 min, together with: testosterone 50 µM).
The IC50 of N=C(N)c1cccc(C[C@H](NS(=O)(=O)c2cccc(-c3cc(CO)ccc3Cl)c2)C(=O)N2CCC(CCNC(=O)NC3CCCCC3)CC2)c1 is reported as 4.6 µM (enzyme activity; testosterone probe).
With C[C@](C(=O)NC1CCOCC1)(c1cncnc1)N(C(=O)[C@H](F)Cl)c1ccc(OC(F)(F)Cl)cc1 the IC50 was > 50 µM (enzyme activity; 10 (unit not given)).

Some of these lines once more:
The IC50 of CC1CCC2(OC1)OC1CC3C4CC=C5CC(OC6OC(CO)C(OC7OC(CO)C(O)C7O)C(O)C6OC6OC(C)C(O)C(O)C6O)CCC5(C)C4CCC3(C)C1(O)C2C (centres unmarked) is reported as 4.52 µM (enzyme activity; human, liver microsomes; 1 h, pH 7.4, testosterone probe).
With COc1ccc(-c2cccc(S(=O)(=O)N[C@@H](Cc3cccc(C(=N)N)c3)C(=O)N3CCC(NC(=O)NC4CCCCC4)CC3)c2)c(OC)c1 the IC50 was 0.21 ± 0.03 µM (enzyme activity, fluorometric; human liver microsomes; 15 min, 37 °C).
